Assay results pooled from the literature.
Numbered parts are unrelated; each lists some results of a single study. Positions count from the first letter of the parent shown.

Study 1
Target: ABI1, truncated, D143A, DHFR fusion (Arabidopsis thaliana)
Method: DHFR PCA, deep sequencing
Sample: yeast
Notes: methotrexate growth selection, single substitutions
With: (+)-ABA 0 µM
Relative to: wild-type fitted maximum
Reading: higher = stronger binding
Starting sequence: PYL1, truncated, DHFR fusion (Arabidopsis thaliana); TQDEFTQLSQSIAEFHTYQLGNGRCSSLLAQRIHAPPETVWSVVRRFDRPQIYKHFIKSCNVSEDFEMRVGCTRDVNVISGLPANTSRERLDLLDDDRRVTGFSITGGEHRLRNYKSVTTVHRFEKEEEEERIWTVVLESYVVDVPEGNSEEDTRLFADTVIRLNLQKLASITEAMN
`D144G`: “relative binding score” -0.729%.
For `R49E`, “relative binding score” read 10.3%.
`E67A` — result for “relative binding score”: 9.21%.
`M68P`: “relative binding score” 4.79%.
Under “relative binding score”, `E131S` is recorded as 38.6%.
For `N77W`, “relative binding score” read 0.718%.
For `F157K`, “relative binding score” read 0.705%.
`N77P`: “relative binding score” -0.0898%.
`N22G` — result for “relative binding score”: 19.5%.
`S59M` — result for “relative binding score”: -3.97%.
`S117R` — result for “relative binding score”: -0.84%.
For `V118S`, “relative binding score” read -0.533%.
For `T73V`, “relative binding score” read 34.9%.
For `D92E`, “relative binding score” read 3.53%.
For `R163V`, “relative binding score” read 6.37%.
`N77S` — result for “relative binding score”: 44.4%.
`P50D`: “relative binding score” 0.188%.
Under “relative binding score”, `R132I` is recorded as 2.67%.

Study 2
Target: CCNF, cyclin fold, Cln2 fusion (human)
Method: yeast growth competition, sequencing
Sample: yeast
Notes: strong parent motif
Relative to: not given
Reading: higher = stronger binding
Starting sequence: PKMYT1 docking peptide (human); SFEPRNLLSLFED
`SFEPRNLLSMFED [L10M]`: “normalised enrichment score” 0.647.
`SFEPRNLLILFED [S9I]`: “normalised enrichment score” 0.227.
`SFEHRNLLSLFED [P4H]` — result for “normalised enrichment score”: -0.666.
Under “normalised enrichment score”, `SFEPRNLASLFED [L8A]` is recorded as 0.333.
`SFEPRKLLSLFED [N6K]` — result for “normalised enrichment score”: 1.35.
`SFEPRNLCSLFED [L8C]` — result for “normalised enrichment score”: -0.0812.
For `SFEGRNLLSLFED [P4G]`, “normalised enrichment score” read -0.164.
`SFEPRNLLSLFER [D13R]` — result for “normalised enrichment score”: 1.85.
For `SFTPRNLLSLFED [E3T]`, “normalised enrichment score” read 2.88.
For `SFEPRTLLSLFED [N6T]`, “normalised enrichment score” read -0.339.
`SFEPRNLLPLFED [S9P]` — result for “normalised enrichment score”: 2.5.
`SFEERNLLSLFED [P4E]` — result for “normalised enrichment score”: -1.27.
Under “normalised enrichment score”, `SFEPRNLSSLFED [L8S]` is recorded as -1.09.
Under “normalised enrichment score”, `SFEPRNLLSEFED [L10E]` is recorded as 0.722.
`SFEPRNLLSLFFD [E12F]`: “normalised enrichment score” 0.841.
For `SFEPRNLLSLAED [F11A]`, “normalised enrichment score” read -1.01.
`SHEPRNLLSLFED [F2H]` — result for “normalised enrichment score”: 0.148.
`SFEPRNLLSLFKD [E12K]`: “normalised enrichment score” 0.391.

Study 3
Target: UBE2V1 UBC core domain (UniProt Q13404)
Method: yeast two-hybrid
Sample: yeast
Notes: mostly zero background
Relative to: not given
Reading: higher = stronger interaction
B1: PHF21A RING domain (UniProt Q96BD5); chain SPTSTDGDIHEDFCSVCRKSGQLLMCDTCSRVYHLDCLDPPLKTIPKGMWICPRCQDQMLKKEEAIPW
B2: TRIM8 RING domain (UniProt Q9BZR9); chain WKNCFEEELICPICLHVFVEPVQLPCKHNFCRGCIGEAWAKDSGLVRCPECNQAYNQKPGLE
B3: ARK2C RING domain (UniProt Q6ZSG1); chain EGEESDTDEKCTICLSMLEDGEDVRRLPCMHLFHQLCVDQWLAMSKKCPICRVDIETQLGAD
B4: TRIM72 RING domain (UniProt Q6ZMU5); chain APGLLHQELSCPLCLQLFDAPVTAECGHSFCRACLGRVAGEPAADGTVLCPCCQAPTRPQALST
Construct (chain): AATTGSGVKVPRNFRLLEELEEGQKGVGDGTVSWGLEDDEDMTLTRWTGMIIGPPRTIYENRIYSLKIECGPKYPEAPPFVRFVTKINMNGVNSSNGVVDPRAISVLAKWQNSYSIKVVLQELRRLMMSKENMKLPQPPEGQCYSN
`DAIPSLSECQCGICMEILVEPVTLPCNHTLCKPCFQSTVEKASLCCPFCRRRVSSWTRYH (RNF168 RING domain (UniProt Q8IYW5))` — result for “lacZ reporter activity”: 0.
`EDEVSDNSAECVVCLSDVRDTLILPCRHLCLCNTCADTLRYQANNCPICRLPFRALLQIR (RNF157 RING domain (UniProt Q96PX1))`: “lacZ reporter activity” 0.
For `RLTMMWEEVTCPICLDPFVEPVSIECGHSFCQECISQVGKGGGSVCPVCRQRFLLKNLRP (TRIM21 RING domain (UniProt P19474))`, “lacZ reporter activity” read 0.
For `B1 (PHF21A RING domain)`, “lacZ reporter activity” read 0.
Under “lacZ reporter activity”, `QLRRLQEERTCKVCMDKEVSVVFIPCGHLVVCQECAPSLRKCPICRGIIKGTVRTF (BIRC2 RING domain (UniProt Q13490))` is recorded as 0.
Under “lacZ reporter activity”, `B2 (TRIM8 RING domain)` is recorded as 0.
Under “lacZ reporter activity”, `FPEHFVKSISCQICEHILADPVETNCKHVFCRVCILRCLKVMGSYCPSCRYPCFPTDLES (RAG1 RING domain (UniProt P15918))` is recorded as 0.
For `B3 (ARK2C RING domain)`, “lacZ reporter activity” read 0.
Under “lacZ reporter activity”, `DDENSDNSNECVVCLSDLRDTLILPCRHLCLCTSCADTLRYQANNCPICRLPFRALLQIR (MGRN1 RING domain (UniProt O60291))` is recorded as 0.
Under “lacZ reporter activity”, `PEELQAMDNVCIICREEMVTGAKRLPCNHIFHTSCLRSWFQRQQTCPTCRMDVLRASLPA (SYVN1 RING domain (UniProt Q86TM6))` is recorded as 0.
`B4 (TRIM72 RING domain)` — result for “lacZ reporter activity”: 0.
Under “lacZ reporter activity”, `QLRRLQEERTCKVCMDKEVSIVFIPCGHLVVCKDCAPSLRKCPICRSTIKGTVRTF (BIRC3 RING domain (UniProt Q13489))` is recorded as 0.

Study 4
Target: Ras GTPase-activating protein-binding protein 1, RRM domain (G3BP1, Homo sapiens, UniProt Q13283)
Chain of UniProt Q13283 (whole entry, looked up): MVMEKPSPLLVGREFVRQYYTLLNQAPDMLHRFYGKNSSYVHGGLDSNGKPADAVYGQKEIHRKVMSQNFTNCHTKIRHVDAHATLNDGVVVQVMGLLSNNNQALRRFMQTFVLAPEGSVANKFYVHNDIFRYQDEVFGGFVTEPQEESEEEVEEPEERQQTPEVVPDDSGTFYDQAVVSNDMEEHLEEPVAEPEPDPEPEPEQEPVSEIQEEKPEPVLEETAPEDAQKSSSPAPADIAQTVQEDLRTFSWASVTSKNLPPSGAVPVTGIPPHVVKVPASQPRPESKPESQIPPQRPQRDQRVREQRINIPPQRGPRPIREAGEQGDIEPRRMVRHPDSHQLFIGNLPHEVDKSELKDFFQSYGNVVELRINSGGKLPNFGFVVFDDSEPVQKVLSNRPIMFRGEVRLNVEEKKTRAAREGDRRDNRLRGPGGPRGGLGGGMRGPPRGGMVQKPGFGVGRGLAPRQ
Method: RNA Bind-n-Seq
Form: RNA
Sample: in vitro
Concentration: 1 µM
Notes: whole 134-nt RNA, ends assumed
With: 150 mM KCl
Relative to: input library
Reading: higher = stronger binding
With `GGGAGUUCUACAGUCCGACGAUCUGGCCCUGGUGGCAUGCGGGGAGGAAGAGGUGGCCUCAUGGAUCGUGGUUGUCCCGGUGGAAUGUUCAGAGGUGGCCGUGGUGGAGACAGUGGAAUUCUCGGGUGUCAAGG` the log2 enrichment was 0.709.
`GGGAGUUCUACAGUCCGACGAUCUCCUGUGCUACACAUCGUAUGUACCGAAUCGGGGAAAGGGGAAAGGGGUUUUUUUGGGGAAAGUAUUAUGUUACGCCGUUCGGAUCUGCAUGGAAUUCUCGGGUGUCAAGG` has a log2 enrichment of 0.944.
With `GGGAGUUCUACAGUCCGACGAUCGUCCUGUGCUACACAUCGUAUGUACCGAAUCGGGUUUUUGGGGUUUUUGGUUUUUGGGAAAGUAUUAUGUUACGCCGUUCGGAUCUGCACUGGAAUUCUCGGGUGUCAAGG` the log2 enrichment was -0.194.
`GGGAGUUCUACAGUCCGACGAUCGCAGGAAGUAAAAACAAAAAGAAAUGCUUCGGAUAGUGGCAGGGGUGGGGGUUGCUAAGGAAAGGGUGGGAUGGGAGUGGGUAAAGAGUUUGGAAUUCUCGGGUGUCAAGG` gave a log2 enrichment of 1.48.
`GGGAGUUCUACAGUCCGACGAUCUGGCCCUGGUGGGAUGCGGGGAGGAAGAGGUGGCCUCAUGGAUCGUGGUGGUCCCGGUGGAAUGUUCAGAGGUGGCCGUGGUGGAGACAGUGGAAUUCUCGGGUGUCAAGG` has a log2 enrichment of 0.882.
For `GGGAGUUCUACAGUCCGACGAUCGCAGGAAGUAAAAACAAAUGGAAAUGCUUCGGAUAGUAGCAGGGGUGGGGGUUGCUAAGGAAAGGGUGGGAUGGGAGUGGGUAAAGAGUUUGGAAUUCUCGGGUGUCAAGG`, the log2 enrichment was 0.776.
For `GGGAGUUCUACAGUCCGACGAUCCACAGACAACACGCACCCACACAGACACAGAGGGAAGGGGUUGGGAUGGGGACAGGGUGCGCAGCAGGGCGGGGUAGGACCCCAGCCCCUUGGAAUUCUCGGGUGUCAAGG`, the log2 enrichment was -0.202.
`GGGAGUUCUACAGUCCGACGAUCAGUCCUGUGCUACACAUCGUAUGUACCGAAUCGGAAAGGUUUUUUUGGUUUUUUUGGAAAGUAUUAUGUUACGCCGUUCGGAUCUGCACUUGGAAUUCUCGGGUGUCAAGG` has a log2 enrichment of -0.489.
`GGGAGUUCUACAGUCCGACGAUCGCAGGAAGUAAAAACAAAUGGAAAUGCAAAGGAUAGUGGCAGGGGUGGGGGUUGCUAAGGAAAGGGUGGGAUGGGAGUGGGUAAAGAGUUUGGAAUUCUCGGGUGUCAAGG` has a log2 enrichment of 0.753.

A few entries again (study 4):
For `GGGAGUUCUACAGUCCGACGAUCGCAGGAAGUAAAAACAAAUGGAAAUGCUUCGGAUAGUAGCAGGGGUGGGGGUUGCUAAGGAAAGGGUGGGAUGGGAGUGGGUAAAGAGUUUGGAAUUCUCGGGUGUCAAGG`, the log2 enrichment was 0.776.
`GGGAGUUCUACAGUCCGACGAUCAGUCCUGUGCUACACAUCGUAUGUACCGAAUCGGAAAGGUUUUUUUGGUUUUUUUGGAAAGUAUUAUGUUACGCCGUUCGGAUCUGCACUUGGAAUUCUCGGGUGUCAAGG` has a log2 enrichment of -0.489.
`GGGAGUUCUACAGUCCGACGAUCUCCUGUGCUACACAUCGUAUGUACCGAAUCGGGGAAAGGGGAAAGGGGUUUUUUUGGGGAAAGUAUUAUGUUACGCCGUUCGGAUCUGCAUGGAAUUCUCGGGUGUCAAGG` has a log2 enrichment of 0.944.
`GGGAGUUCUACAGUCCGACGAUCGCAGGAAGUAAAAACAAAAAGAAAUGCUUCGGAUAGUGGCAGGGGUGGGGGUUGCUAAGGAAAGGGUGGGAUGGGAGUGGGUAAAGAGUUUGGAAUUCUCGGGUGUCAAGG` gave a log2 enrichment of 1.48.
With `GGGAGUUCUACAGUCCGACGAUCGUCCUGUGCUACACAUCGUAUGUACCGAAUCGGGUUUUUGGGGUUUUUGGUUUUUGGGAAAGUAUUAUGUUACGCCGUUCGGAUCUGCACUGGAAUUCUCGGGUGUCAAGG` the log2 enrichment was -0.194.
